Measurements from different studies.
Each numbered part is a random draw from the data of one study; scales do not carry over between parts.
Chain of UniProt Q9H2X6 (whole entry, looked up): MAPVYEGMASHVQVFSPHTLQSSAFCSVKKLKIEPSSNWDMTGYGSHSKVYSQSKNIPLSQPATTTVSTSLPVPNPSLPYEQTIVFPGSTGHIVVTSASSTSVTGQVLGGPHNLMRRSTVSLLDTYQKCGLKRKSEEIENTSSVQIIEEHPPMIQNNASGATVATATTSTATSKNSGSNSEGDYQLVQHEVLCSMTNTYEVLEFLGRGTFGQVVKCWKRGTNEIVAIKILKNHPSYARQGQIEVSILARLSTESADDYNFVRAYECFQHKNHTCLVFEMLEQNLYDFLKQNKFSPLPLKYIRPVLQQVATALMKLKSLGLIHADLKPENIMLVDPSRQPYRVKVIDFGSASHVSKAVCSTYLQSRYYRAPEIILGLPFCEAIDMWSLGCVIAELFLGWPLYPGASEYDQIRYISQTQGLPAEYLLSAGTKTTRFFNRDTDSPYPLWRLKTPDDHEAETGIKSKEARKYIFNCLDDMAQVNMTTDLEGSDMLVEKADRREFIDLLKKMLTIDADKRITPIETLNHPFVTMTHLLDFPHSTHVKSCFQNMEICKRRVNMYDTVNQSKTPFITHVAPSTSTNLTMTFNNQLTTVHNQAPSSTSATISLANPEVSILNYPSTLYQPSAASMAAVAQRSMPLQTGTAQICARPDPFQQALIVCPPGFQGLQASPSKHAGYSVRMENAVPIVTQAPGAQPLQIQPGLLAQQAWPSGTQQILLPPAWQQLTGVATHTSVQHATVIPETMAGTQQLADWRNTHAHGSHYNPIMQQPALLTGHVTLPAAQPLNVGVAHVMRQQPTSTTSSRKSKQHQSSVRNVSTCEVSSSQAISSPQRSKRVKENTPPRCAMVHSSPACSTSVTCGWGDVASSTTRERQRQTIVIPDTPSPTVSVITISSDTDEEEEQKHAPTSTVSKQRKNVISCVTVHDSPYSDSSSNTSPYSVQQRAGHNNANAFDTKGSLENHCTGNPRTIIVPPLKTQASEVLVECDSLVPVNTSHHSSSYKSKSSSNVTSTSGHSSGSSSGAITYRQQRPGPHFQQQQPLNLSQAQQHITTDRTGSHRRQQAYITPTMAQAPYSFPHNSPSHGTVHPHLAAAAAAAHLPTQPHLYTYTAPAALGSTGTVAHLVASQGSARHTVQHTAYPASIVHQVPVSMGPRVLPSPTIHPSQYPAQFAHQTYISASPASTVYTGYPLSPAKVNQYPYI

Series 1
Target: Eukaryotic initiation factor 4A-I (EIF4A1, Homo sapiens, UniProt P60842, residues 1-406, full length assumed)
Chain of UniProt P60842 (whole entry, looked up): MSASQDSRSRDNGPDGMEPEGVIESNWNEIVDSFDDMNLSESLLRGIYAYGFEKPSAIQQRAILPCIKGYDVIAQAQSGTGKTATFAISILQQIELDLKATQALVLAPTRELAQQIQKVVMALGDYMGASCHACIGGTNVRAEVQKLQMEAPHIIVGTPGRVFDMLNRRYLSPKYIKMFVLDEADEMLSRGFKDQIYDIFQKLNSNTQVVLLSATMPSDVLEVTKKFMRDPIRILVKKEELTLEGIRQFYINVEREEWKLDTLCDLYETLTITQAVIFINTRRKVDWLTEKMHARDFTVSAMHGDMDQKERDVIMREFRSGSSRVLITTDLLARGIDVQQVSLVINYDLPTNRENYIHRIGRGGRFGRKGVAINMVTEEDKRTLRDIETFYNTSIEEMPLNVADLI
Method: RNA Bind-n-Seq
Molecule type: RNA
Matrix: in vitro
Tested at: 15 pmol
Notes: 4-mer, random 30-nt RNA, single round
Added: 3 µM RocA, 2 mM AMP-PNP
Baseline: mean of 4-mers
Direction: higher = stronger binding
Quantity: 4-mer enrichment Z-score
GGUG: 2.21
UGAU: 0.568
CCGC: -0.731
CGGG: 1.01
GGUC: -0.506
GCGA: 1.27
GAGC: 0.633
CAAG: 0.139

Series 2
Target: TAR DNA-binding protein 43, full length, His tag (TARDBP, Homo sapiens, UniProt Q13148, residues 1-414)
Method: RNA Bind-n-Seq
Molecule type: RNA
Matrix: in vitro
Tested at: 20 nM
Notes: 6-mer, flanks averaged, single round
Added: 150 mM KCl
Baseline: input library
Direction: higher = stronger binding
Quantity: 6-mer enrichment (R)
UAUACC: 0.582
AUGGCA: 0.859
GAAAUC: 0.606
AUGCGC: 0.869
CCGACC: 0.656
AGCUAU: 0.614
AGGACG: 1.58
GGUGAC: 1.42

Series 3
Target: Ras GTPase-activating protein-binding protein 1, full length (G3BP1, Homo sapiens, UniProt Q13283)
Chain of UniProt Q13283 (whole entry, looked up): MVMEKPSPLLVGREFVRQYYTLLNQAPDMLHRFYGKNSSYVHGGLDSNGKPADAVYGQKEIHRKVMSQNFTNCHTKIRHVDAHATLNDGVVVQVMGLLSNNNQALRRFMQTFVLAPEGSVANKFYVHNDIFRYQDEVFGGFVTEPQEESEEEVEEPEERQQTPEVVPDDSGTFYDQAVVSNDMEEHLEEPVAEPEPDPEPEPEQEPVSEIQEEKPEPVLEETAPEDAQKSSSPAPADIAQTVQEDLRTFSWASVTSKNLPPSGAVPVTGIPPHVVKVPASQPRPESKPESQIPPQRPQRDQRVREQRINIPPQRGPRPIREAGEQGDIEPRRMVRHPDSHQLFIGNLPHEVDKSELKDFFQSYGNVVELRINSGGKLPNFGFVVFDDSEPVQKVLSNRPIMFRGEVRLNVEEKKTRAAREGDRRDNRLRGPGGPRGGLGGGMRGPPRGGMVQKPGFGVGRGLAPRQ
Method: RNA Bind-n-Seq
Molecule type: RNA
Matrix: in vitro
Tested at: 200 nM
Notes: whole 134-nt RNA, ends assumed
Added: 150 mM LiCl
Baseline: input library
Direction: higher = stronger binding
Quantity: log2 enrichment
Each molecule: 7-deaza-guanosine replaces G
Shared flanks, not repeated: GGGAGUUCUACAGUCCGACGAUC … UGGAAUUCUCGGGUGUCAAGG
UCCUGUGCUACACAUCGUAUGUACCGAAUCGUGUGUGUGUGUGUGUGUGUGUGUGUGUGUAAAGUAUUAUGUUACGCCGUUCGGAUCUGC: -0.492
GCACGAAGUAAAAACAAAUGGAAAUGCUUCGGAUAGUGGCAGGGGUGGGGGUUGCUAAGGAAAGGGUGGGAUGGGAGUGGGUAAAGAGUU: 0.0217
UCAAGUCCUGUGCUACACAUCGUAUGUACCGAAUCGGUUUUUUUGGUUUGGUGGAAAGUAUUAUGUUACGCCGUUCGGAUCUGCACUUCC: -0.7
AGUCCUGUGCUACACAUCGUAUGUACCGAAUCGGGAAAAAGGAAAAAGGGGAAAAAGGAAAGUAUUAUGUUACGCCGUUCGGAUCUGCAC: -0.475
UGGAUGGACACCAUUAUCGUCGUGUGGCACGGGUUGACCUAAGGAAGAAGACAGAGACUUUCUCCACAAGAAGGGUUAAGUCUGGGCUGU: -0.155
CUCAAGUCCUGUGCUACACAUCGUAUGUACCGAAUCGGGGUUGGUUGGGUUGGGAAAGUAUUAUGUUACGCCGUUCGGAUCUGCACUUCC: -0.225
AAGUCCUGUGCUACACAUCGUAUGUACCGAAUCGGCCCCGGCCCCGGGGCCCCGGGAAAGUAUUAUGUUACGCCGUUCGGAUCUGCACUU: -2.39
UGGGAGGUGGAUUUUGUUUAUUUUUUUAGCUCAUUUCCAGGGGUGGGAAUUUUUUUUUAAUAUGUGUCAUGAAUAAACUUGUUUUUGAAA: 0.0294

Single results of other studies
CN([C@@H](Cc1ccc(OS(=O)(=O)c2cccc3cnccc23)cc1)C(=O)N1CCN(c2ccccc2)CC1)S(=O)(=O)c1cccc2cnccc12
remaining activity (Homeodomain-interacting protein kinase 2 (HIPK2, Homo sapiens, UniProt Q9H2X6); enzyme activity, inhibitor; 0.5 µM; baseline: control): 109%
